# Experimental data collected from several papers.
# A part holds a random share of what one study measured.

# Sample 1 — method: protein-binding microarray; form: double-stranded DNA, one strand shown; medium: in vitro; tested at: 2200 nM top; notes: 60-bp whole probe; with: salmon DNA 0.4 mg/ml; baseline: random background probes; direction: higher = stronger binding; all sequences stand within: GCCTAGCAC … GTCTTGATTCGCTTGACGCTGCTG
# Target: Interferon regulatory factor 7, full length, phosphomimetic (IRF7, Homo sapiens, UniProt Q92985, residues 1-503, S471D/S472D/S475D/S476D/S477D/S483D/S484D/S487D)
# Construct (chain): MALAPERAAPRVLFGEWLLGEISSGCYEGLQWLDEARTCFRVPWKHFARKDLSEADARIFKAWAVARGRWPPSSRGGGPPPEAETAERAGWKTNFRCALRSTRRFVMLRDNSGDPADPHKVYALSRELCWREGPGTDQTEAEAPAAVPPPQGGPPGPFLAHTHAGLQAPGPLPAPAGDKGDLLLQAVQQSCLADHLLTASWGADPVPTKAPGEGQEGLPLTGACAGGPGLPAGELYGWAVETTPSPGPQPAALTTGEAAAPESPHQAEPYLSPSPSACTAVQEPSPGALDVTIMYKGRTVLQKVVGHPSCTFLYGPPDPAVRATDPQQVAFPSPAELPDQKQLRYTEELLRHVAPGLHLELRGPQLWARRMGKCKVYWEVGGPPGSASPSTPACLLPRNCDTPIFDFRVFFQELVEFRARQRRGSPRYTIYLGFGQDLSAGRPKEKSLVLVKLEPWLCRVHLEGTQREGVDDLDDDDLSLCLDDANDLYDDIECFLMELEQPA
Sequence,fitted relative affinity [z-score]
GACAGTTTCGGTCTCGGGACGTGCTAG,8.06
TTAGATAGCGGGTATCGATTAGTGCTA,-0.341
GACGGACTGGGAACTGGGGACGTGCTA,-1.05
GGCTCCTCCCCGCTTCTGGAGTGCTAG,-0.192
TTAGATATCAGTATCGATGAGTGCTAG,-0.155
TGGTCTCTAGTTAGAGAACTGTGCTAG,0.15
TTAGGTATCGTGTTTCGGTTAGTGCTA,3.88
TCAATATTGAGACTCATACTGTGCTAG,0.238
GACGGTCTCCTAATCCTGACGTGCTAG,0.865
GACGGACTGCTTTACCTGACGTGCTAG,0.663
GACGATTTCAGTAGCGAGACGTGCTAG,0.274
TTAGGACTGATACTGCTTTAGTGCTAG,-0.0665
TTCGGTATCGGGACTGGGTTAGTGCTA,0.594
CTAGAACTGGGGTTTCGATTAGTGCTA,2.03
TTAGATTTCAGATTGGATTAGTGCTAG,0.515
GACGGTTTCGATCTCGGGACGTGCTAG,6.1
TCAAACTTAGTTTTCAAACTGTGCTAG,-0.105
GACGGACTGGGTATCGGAACGTGCTAG,-0.708
TTAGGACTGGGACAGGGTTAGTGCTAG,-0.862

# Sample 2 — method: RNA Bind-n-Seq; form: RNA; medium: in vitro; tested at: 200 nM; notes: whole 134-nt RNA, ends assumed; with: 150 mM LiCl; baseline: input library; direction: higher = stronger binding; each molecule: 7-deaza-guanosine replaces G
# Target: Fragile X messenger ribonucleoprotein 1, C-terminal low-complexity region (Fmr1, Mus musculus, UniProt P35922)
# All sequences stand within: GGGAGUUCUACAGUCCGACGAUC … UGGAAUUCUCGGGUGUCAAGG
Sequence,log2 enrichment
CAAGUCCUGUGCUACACAUCGUAUGUACCGAAUCGGGGAGGGGUGGGGUUUGGGGAAAGUAUUAUGUUACGCCGUUCGGAUCUGCACUUC,-0.564
CUGUGCUACACAUCGUAUGUACCGAAUCGGGGAAAGGGGAAAAAAAGGGGAAAAAAAGGGGAAAGUAUUAUGUUACGCCGUUCGGAUCUG,1.49
GCAGGAAGUAAAAACAAAUGGAAAUGCUCCGGAUAGUGGCAGGGGUGGGGGUUGCUAAGGAAAGGGUGGGAUGGGAGUGGGUAAAGAGUU,1.75
UGGCCCUGGUGGCAUGCUGGGAGGAAGAGGUGGCCUCAUGGAUCGUGGUGGUCCCGGUGGAAUGUUCAGAGGUGGCCGUGGUGGAGACAG,-0.0622
AGUCCUGUGCUACACAUCGUAUGUACCGAAUCGGUUUUUUUGGUUUGGUUUUUUUGGAAAGUAUUAUGUUACGCCGUUCGGAUCUGCACU,-2.74
ACCAUGCAGGUGGGCAUCUUUGGGAAGUGGGGCAAGGGGGGGAUAGGGAGGGGGGUAACACUUUGGGAACAGGUGGUCCCAGGUUGUUUC,0.742
GCAGGAAGUAAAAACAAAUGGAAAUGCUUCGGAUAGUGGCAAAAGUGGGGGUUGCUAAGGAAAGGGUGGGAUGGGAGUGGGUAAAGAGUU,1.32
GCAGGAAGUAAAAACAAAUGGAAAUGCUUCGGAUAGUGGCAGGGGUGGGGGUUGCUAAGGAAAGGGUGGGAUGGGAGUGGGUAUAGAGUU,2.85

# Sample 3 — method: competition protein-binding microarray; form: double-stranded DNA, one strand shown; medium: in vitro; tested at: 2 µM; with: Pho4 competitor, 0.05 µM; direction: higher = stronger binding; all sequences stand within: … GTCTTGATTCGCTTGACGCTGCTG
# Target: Centromere-binding protein 1, full length, His-tagged (CBF1, Saccharomyces cerevisiae, UniProt P17106, residues 1-351)
# Chain of UniProt P17106 (whole entry, looked up): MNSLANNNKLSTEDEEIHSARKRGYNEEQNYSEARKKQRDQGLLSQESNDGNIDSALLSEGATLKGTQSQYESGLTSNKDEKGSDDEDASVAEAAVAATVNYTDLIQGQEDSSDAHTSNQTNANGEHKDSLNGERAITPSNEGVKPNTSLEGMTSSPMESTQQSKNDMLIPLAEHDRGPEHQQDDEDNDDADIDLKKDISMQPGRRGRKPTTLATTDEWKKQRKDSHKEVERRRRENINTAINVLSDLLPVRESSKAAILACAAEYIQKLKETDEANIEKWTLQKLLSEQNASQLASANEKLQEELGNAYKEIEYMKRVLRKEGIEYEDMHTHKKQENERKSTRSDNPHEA
# Notes: whole 60-bp probe, lowest competitor level
Sequence,fluorescence intensity [a.u.]
TTACTCTTTAATAATCGGCAAGAAATAATTGAATTT,87.5
TTTAACGCTTATGTACACGGGTGCAAAACTACCCCT,75.4
CATACCCAACCTTCTCACGTGTTTTAAGATATTTGT,1510
CGTCCTAGTGATTTTCACGTGCCCTCCATGAGGAAG,1150
GTCGAAAGATGACCTCACGTTGCAGCCACCGACACA,93.9
GCTGAAGTTATTGACTCCGTGGGTAATAAGGTCTCA,70.1
ATTTTCGAGGGTTACGTCGTGACTCGTATGCTTTCT,158
GGGGACACCAGTTATCATGTTGTCAACCAAAGACTT,72.7
GACGGCCAAAAACTTCACATGCCGCCCAGCCAAGCA,73.3
AGCAACGACATTCCACACGTGGTGCGGTTCAGCGCG,683
TCCTCAGGGACCTCTCACGTGCCGAGTATCAGCCAG,1500
GCTCCCTGGTTCCGTCACGCAAAACCGAAAGGCTCA,65
CGTCTAAAAGTTCGGCACGTGACAAACCTGGTATTT,6970
AAAGCGGTAATTTGGCTAGTGGGTGCAGATATCTAT,80.7
CATACCCAACCTTGTCACCTAACTTAAGATATTTGT,73.8
CGTCCTAGTGATTGGAGTGTGGGTGCCATGAGGAAG,83.4
CACCACTTCTCAAAGAACGTGCAAATAACTCTTCCA,149
CTCGTTACATGTTCCAACGTGACTCGAGAAAGCATG,767
GTTTCTGATGACCATCACGTGAAGAATTTGATGTCC,2750

# Sample 4 — method: protein binding microarray; form: double-stranded DNA, one strand shown; medium: in vitro; tested at: not given; baseline: not given; direction: higher = stronger binding
# Target: Histone acetyltransferase KAT6A, winged helix 2, GST fusion (KAT6A, Homo sapiens, UniProt Q92794, residues 85-181)
# Notes: 8-mer, flanks averaged, mean of 2 arrays, mostly near background
# Construct (chain): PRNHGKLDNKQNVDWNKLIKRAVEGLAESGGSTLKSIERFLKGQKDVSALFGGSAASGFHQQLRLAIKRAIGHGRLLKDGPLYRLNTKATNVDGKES
Sequence,E-score
ACGAGTGC,-0.127
AACTAGAT,0.0383
CCACTAAG,-0.00334
AATGGGCA,-0.0238
CTAACGGC,0.0725
ATCAGAGC,0.0464
ACTAGGAA,-0.186
ACACGAAC,0.177
GTTATACA,-0.138
CACCTAAG,-0.109
AACACCTG,0.0473
ACCGACGA,0.151
GAGAAATC,0.0418
GCGAATCC,-0.0762
AGTTCTTG,0.0767
ACAAGTAC,-0.184
GGATTACA,-0.144
CTGTCAAG,3.5e-05
ACGGCATG,0.0669
GAAGACTA,-0.11
ACGCACGT,-0.226
AGACTACC,-0.197
GCCGCGAA,0.0255
AAATGTCT,-0.12
GCTCCAAC,0.106

# Repeated from above (sample 3):
Sequence,fluorescence intensity [a.u.]
GCTGAAGTTATTGACTCCGTGGGTAATAAGGTCTCA,70.1
ATTTTCGAGGGTTACGTCGTGACTCGTATGCTTTCT,158
GGGGACACCAGTTATCATGTTGTCAACCAAAGACTT,72.7
GACGGCCAAAAACTTCACATGCCGCCCAGCCAAGCA,73.3
AGCAACGACATTCCACACGTGGTGCGGTTCAGCGCG,683
